Results of several laboratories.
Parts stem from different laboratories: compare values within a part only.
Chain of UniProt Q06418 (whole entry, looked up): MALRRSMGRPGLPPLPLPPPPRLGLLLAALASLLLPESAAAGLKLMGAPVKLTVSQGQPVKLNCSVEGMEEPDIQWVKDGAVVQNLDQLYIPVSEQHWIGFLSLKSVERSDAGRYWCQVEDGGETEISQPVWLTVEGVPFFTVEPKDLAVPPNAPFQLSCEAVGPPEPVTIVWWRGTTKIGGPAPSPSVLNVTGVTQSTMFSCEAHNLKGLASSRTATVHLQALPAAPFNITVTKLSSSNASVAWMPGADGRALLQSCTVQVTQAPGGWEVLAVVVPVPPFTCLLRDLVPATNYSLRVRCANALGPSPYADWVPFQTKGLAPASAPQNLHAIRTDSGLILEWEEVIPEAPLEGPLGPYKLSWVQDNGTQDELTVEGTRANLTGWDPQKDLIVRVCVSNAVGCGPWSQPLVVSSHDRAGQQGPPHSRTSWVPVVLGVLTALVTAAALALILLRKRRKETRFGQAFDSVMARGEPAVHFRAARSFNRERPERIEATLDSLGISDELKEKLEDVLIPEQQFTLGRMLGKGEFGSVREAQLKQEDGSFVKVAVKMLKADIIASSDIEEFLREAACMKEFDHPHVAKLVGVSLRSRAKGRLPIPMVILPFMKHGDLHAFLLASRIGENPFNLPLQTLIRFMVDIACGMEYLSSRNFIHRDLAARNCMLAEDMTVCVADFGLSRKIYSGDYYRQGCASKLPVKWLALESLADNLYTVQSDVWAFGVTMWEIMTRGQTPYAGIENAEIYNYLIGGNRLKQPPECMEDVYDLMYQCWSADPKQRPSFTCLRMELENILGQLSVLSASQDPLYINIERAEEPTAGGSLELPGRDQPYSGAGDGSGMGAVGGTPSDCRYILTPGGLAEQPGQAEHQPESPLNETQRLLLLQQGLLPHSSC
Chain of UniProt P93022 (whole entry, looked up): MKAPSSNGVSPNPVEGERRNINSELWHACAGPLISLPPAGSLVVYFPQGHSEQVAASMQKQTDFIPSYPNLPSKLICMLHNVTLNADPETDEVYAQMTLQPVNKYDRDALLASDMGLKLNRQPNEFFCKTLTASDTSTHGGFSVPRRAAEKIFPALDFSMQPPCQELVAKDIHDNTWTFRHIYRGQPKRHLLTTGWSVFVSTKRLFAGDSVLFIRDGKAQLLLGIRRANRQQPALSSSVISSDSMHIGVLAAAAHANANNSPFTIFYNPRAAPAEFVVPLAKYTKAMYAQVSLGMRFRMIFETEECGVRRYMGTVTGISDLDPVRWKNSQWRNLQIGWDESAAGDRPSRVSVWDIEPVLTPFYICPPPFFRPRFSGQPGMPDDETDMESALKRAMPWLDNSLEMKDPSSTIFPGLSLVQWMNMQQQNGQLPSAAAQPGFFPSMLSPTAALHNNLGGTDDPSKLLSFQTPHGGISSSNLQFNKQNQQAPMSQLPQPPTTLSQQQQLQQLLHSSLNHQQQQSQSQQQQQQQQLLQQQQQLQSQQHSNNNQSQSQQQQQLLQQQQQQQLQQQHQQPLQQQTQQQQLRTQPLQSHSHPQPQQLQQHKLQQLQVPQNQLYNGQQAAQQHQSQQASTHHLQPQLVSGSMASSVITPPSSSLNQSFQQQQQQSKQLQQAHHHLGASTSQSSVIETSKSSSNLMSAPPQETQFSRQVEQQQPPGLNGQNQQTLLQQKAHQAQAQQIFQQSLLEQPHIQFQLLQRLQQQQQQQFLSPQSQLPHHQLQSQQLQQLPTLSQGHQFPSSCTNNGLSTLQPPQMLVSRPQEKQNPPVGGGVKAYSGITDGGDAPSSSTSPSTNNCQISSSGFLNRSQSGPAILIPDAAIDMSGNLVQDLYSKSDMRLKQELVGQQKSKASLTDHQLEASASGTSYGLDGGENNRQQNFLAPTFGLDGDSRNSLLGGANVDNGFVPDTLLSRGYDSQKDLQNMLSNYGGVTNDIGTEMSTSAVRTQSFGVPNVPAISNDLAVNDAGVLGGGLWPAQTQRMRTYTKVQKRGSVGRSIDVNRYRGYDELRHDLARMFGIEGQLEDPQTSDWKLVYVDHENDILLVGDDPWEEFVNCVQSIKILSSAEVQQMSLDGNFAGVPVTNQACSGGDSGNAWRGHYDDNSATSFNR
Chain of UniProt O24408 (whole entry, looked up): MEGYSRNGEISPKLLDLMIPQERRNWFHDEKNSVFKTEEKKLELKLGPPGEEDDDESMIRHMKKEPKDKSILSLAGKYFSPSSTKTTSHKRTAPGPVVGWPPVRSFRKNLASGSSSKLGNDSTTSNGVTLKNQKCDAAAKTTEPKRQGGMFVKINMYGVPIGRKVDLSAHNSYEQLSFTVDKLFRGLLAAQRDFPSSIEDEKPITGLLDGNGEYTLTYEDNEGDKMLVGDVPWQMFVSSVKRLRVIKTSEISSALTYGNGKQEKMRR
Chain of UniProt P17948 (whole entry, looked up): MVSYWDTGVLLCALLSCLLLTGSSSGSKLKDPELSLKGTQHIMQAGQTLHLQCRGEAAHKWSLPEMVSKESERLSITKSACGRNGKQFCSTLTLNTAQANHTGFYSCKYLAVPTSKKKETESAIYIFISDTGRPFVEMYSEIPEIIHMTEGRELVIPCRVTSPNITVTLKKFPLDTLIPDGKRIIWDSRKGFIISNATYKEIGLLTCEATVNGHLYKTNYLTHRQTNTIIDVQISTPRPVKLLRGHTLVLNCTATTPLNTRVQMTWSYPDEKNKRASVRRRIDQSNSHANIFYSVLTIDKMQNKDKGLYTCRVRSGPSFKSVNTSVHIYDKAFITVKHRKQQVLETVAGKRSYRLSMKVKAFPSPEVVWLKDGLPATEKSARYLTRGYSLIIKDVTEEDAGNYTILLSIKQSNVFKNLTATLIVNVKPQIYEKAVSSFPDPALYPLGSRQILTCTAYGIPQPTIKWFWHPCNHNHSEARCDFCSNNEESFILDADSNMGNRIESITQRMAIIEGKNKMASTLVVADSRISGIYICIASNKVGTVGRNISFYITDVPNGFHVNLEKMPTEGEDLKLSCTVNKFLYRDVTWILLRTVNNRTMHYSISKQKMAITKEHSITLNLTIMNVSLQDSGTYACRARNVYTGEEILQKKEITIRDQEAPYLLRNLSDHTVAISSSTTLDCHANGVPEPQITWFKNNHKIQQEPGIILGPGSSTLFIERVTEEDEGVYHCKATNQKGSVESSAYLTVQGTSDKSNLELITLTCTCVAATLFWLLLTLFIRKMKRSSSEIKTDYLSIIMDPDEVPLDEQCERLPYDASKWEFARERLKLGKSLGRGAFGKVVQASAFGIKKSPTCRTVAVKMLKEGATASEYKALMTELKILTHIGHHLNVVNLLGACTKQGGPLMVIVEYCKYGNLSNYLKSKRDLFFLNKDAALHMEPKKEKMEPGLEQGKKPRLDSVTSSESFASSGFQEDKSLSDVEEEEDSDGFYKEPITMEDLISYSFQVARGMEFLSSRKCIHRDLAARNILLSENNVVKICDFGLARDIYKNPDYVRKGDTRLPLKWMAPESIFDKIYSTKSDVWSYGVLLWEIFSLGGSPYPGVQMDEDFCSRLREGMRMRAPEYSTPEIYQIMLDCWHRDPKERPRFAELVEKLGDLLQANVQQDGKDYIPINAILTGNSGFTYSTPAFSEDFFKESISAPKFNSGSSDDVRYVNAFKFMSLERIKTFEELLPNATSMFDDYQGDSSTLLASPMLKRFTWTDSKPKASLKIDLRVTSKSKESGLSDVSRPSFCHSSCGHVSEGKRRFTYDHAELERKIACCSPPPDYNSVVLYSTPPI
Chain of UniProt Q9HBY8 (whole entry, looked up): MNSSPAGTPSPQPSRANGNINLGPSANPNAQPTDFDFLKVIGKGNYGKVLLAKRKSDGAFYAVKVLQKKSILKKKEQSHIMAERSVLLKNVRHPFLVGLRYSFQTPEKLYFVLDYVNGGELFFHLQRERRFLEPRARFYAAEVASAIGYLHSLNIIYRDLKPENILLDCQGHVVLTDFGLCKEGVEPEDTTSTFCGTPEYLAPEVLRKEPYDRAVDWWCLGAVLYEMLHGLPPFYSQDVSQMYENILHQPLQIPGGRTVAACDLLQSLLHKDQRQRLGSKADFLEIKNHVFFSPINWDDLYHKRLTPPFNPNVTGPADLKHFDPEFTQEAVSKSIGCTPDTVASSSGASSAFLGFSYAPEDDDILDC

Sample 1
Sequence: B1 (IAA5)
Technique: two-hybrid
Direction: higher = firmer interaction
B1: IAA5 (Arabidopsis thaliana, UniProt P33078); chain MANESNNLGLEITELRLGLPGDIVVSGESISGKKRASPEVEIDLKCEPAKKSQVVGWPPVCSYRRKNSLERTKSSYVKVSVDGAAFLRKIDLEMYKCYQDLASALQILFGCYINFDDTLKESECVPIYEDKDGDWMLAGDVPWEMFLGSCKRLRIMKRSCNRG
For IAA18 (Arabidopsis thaliana, UniProt O24408); baseline: out of 2 tests: positive tests read 2.
The positive tests was 4 (IAA17 (Arabidopsis thaliana, UniProt P93830); baseline: out of 4 tests).
The positive tests was 1 (ARF7 1030-1164 (Arabidopsis thaliana, UniProt P93022); baseline: out of 3 tests).
IAA9 (Arabidopsis thaliana, UniProt Q38827); baseline: out of 4 tests — positive tests: 4.
It gave 4 for positive tests (IAA19 (Arabidopsis thaliana, UniProt O24409); baseline: out of 4 tests).
The positive tests was 2 (ARF22 498-598 (Arabidopsis thaliana, UniProt Q9C8N7); baseline: out of 4 tests).

Sample 2
SMILES: N#Cc1cnc2cnc(NCc3cccnc3)cc2c1Nc1ccc(F)c(Cl)c1
Read-out: enzyme activity
Mode: inhibitor
Tested at: 0.5 µM
Baseline: control
The remaining activity was 102% (Ephrin type-A receptor 2 (EPHA2, Homo sapiens, UniProt P29317)).
It gave 99.1% for remaining activity (Ribosomal protein S6 kinase alpha-3 (RPS6KA3, Homo sapiens, UniProt P51812)).
It gave 81.8% for remaining activity (Casein kinase I isoform epsilon (CSNK1E, Homo sapiens, UniProt P49674)).
For Vascular endothelial growth factor receptor 1 (FLT1, Homo sapiens, UniProt P17948): remaining activity read 88%.
It gave 97.6% for remaining activity (Serine/threonine-protein kinase SIK2 (SIK2, Homo sapiens, UniProt Q9H0K1)).
For Casein kinase I isoform delta (CSNK1D, Homo sapiens, UniProt P48730): remaining activity read 88.4%.
The remaining activity was 93.6% (Tyrosine-protein kinase JAK1 (JAK1, Homo sapiens, UniProt P23458)).
For Dual specificity protein kinase CLK1 (CLK1, Homo sapiens, UniProt P49759): remaining activity read 91%.
Tyrosine-protein kinase receptor TYRO3 (TYRO3, Homo sapiens, UniProt Q06418) — remaining activity: 98%.
The remaining activity was 93.8% (Insulin-like growth factor 1 receptor (IGF1R, Homo sapiens, UniProt P08069)).
For Serine/threonine-protein kinase Sgk2 (SGK2, Homo sapiens, UniProt Q9HBY8): remaining activity read 98.5%.

Sample 3
Target: Alpha-1B adrenergic receptor (ADRA1B, Homo sapiens, UniProt P35368)
Chain of UniProt P35368 (whole entry, looked up): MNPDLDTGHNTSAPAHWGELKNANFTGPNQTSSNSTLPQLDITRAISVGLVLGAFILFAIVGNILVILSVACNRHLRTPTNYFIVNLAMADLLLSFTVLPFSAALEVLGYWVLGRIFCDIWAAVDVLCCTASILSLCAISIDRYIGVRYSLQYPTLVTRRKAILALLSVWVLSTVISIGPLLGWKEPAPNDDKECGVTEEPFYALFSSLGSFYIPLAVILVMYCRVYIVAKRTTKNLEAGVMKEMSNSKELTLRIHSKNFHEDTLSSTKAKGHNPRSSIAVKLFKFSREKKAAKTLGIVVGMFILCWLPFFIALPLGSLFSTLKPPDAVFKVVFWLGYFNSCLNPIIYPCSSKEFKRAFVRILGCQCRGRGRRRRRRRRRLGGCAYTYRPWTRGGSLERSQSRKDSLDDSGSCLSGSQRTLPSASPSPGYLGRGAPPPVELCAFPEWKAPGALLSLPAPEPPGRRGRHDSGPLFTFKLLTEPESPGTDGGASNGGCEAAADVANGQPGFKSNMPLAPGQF
Read-out: ligand displacement
Tested at: 10 µM
Nc1nc(NCc2ccccc2)nc(-c2ccccc2CO)n1 gave an inhibition of -15.4%.
O=C(Nc1ccc(Oc2ccc(F)cc2)cc1)N1CCc2ncccc2[C@H]1c1ccc(F)cc1 gave an inhibition of 12.2%.
Cc1ccccc1Oc1cc(-n2c(=O)cc(C(F)(F)F)[nH]c2=O)c2ccccc2c1Cl gave an inhibition of 19.3%.
The inhibition of CC[C@H](CC(=O)O)n1c(=O)c2ncccc2n(Cc2cn(C)c3cc(C)cc(C)c23)c1=O is reported as -5.58%.
With NC(=O)c1ccc2nc(-c3ccc(C4(N)CCC4)cc3)c(-c3ccccc3)n2n1 the inhibition was -8.97%.
With CNC(=N)NCCC[C@H](NC(=O)[C@H](CC(C)C)NC(=O)NNC(=O)[C@H](Cc1ccccc1)NC(=O)[C@H](CO)NC(=O)[C@H](CC(N)=O)NC(=O)[C@@H](Cc1ccncc1)NC(=O)[C@H](N)Cc1ccc(O)cc1)C(=O)N[C@@H](Cc1ccccc1)C(N)=O the inhibition was -7.65%.
For CNC(=O)Nc1ccc2c(c1)CC[C@]21OC(=O)N(CC(=O)N(Cc2ccc(F)cc2)[C@@H](C)C(F)(F)F)C1=O, the inhibition was 1.93%.
CC1CCN(c2ccnc(NCc3cn(C)cn3)n2)CC1 has an inhibition of -5.62%.
The inhibition of CC(=O)Nc1ncc(CN2CCC[C@H](Cc3cc(C)nc(C)c3)C2)s1 is reported as -5.2%.
O=C(N[C@H]1CCCCC/C=C\C2C[C@@]2(C(=O)O)NC(=O)[C@@H]2C[C@@H](Oc3ccncc3)CN2C1=O)OC1CCCC1 (stereo partly drawn) gave an inhibition of -7.2%.
CO[C@H]1CC[C@H](CNc2ccc(S(=O)(=O)NC(=O)c3ccc(N4CCN(CC5=C(c6ccc(Cl)cc6)CC(C)(C)CC5)CC4)cc3Oc3cnc4[nH]ccc4c3)cc2[N+](=O)[O-])CC1 has an inhibition of 1.2%.

Sample 4
Target: Ras GTPase-activating protein-binding protein 1, full length (G3BP1, Homo sapiens, UniProt Q13283)
Chain of UniProt Q13283 (whole entry, looked up): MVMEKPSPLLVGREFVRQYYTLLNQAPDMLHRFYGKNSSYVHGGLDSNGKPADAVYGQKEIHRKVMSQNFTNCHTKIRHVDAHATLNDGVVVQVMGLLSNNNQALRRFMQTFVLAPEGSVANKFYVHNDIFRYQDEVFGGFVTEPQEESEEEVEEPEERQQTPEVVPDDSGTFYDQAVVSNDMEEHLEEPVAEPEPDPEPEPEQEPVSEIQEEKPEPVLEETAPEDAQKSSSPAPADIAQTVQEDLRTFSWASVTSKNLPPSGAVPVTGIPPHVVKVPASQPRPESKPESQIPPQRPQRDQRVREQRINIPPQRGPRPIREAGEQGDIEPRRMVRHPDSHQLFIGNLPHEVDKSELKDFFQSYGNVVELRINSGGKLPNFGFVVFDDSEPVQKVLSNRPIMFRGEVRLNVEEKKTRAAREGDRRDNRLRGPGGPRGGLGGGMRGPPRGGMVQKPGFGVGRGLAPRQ
Technique: RNA Bind-n-Seq
Form: RNA
Medium: in vitro
Tested at: 200 nM
Setting: whole 134-nt RNA, ends assumed
Added: 150 mM LiCl
Baseline: input library
Direction: higher = stronger binding
Each molecule: 7-deaza-guanosine replaces G
Constant ends, left off below: GGGAGUUCUACAGUCCGACGAUC … UGGAAUUCUCGGGUGUCAAGG
For `GUCCUGUGCUACACAUCGUAUGUACCGAAUCGGGGAGGGGAAAGGGGUUUUUUUGGGGAAAGUAUUAUGUUACGCCGUUCGGAUCUGCAC`, the log2 enrichment was 0.743.
For `CACAGACAACACGCACCCACACAGACACAGAGGGAAGGGGUUGGGAUGGGGAAAAGGUGCACAGCAGGGCGGGGUAGGACCCCAGCCCCU`, the log2 enrichment was -0.044.
For `CUCAAGUCCUGUGCUACACAUCGUAUGUACCGAAUCGGGCCGGCCGGGCCGGGAAAGUAUUAUGUUACGCCGUUCGGAUCUGCACUUCCA`, the log2 enrichment was 0.742.
`CUCAAGUCCUGUGCUACACAUCGUAUGUACCGAAUCGGCCGGCCGGGGCCGGGGAAAGUAUUAUGUUACGCCGUUCGGAUCUGCACUUCC` gave a log2 enrichment of -0.351.
`UCCUGUGCUACACAUCGUAUGUACCGAAUCGGAAAAAAAGGUUUUUUUGGAAAAAAAGGAAAGUAUUAUGUUACGCCGUUCGGAUCUGCA` has a log2 enrichment of -1.77.
`GUCCUGUGCUACACAUCGUAUGUACCGAAUCGGGAAAGGGAAAAAAAGGGUUUUUGGGAAAGUAUUAUGUUACGCCGUUCGGAUCUGCAC` gave a log2 enrichment of -1.04.
`GCAGGAAGUUAAAACAAAUGGAAAUGCUUCGGAUAGUGGCAGGGGUGGGGGUUGCUAAGGAAAGGGUGGGAUGGGAGUGGGUAAAGAGUU` gave a log2 enrichment of 0.113.
With `UCCUGUGCUACACAUCGUAUGUACCGAAUCGGGUUUUUUGGGUUUUUUGGGUUUUUUGGGAAAGUAUUAUGUUACGCCGUUCGGAUCUGC` the log2 enrichment was 0.26.

Excerpt of the above (sample 3):
CO[C@H]1CC[C@H](CNc2ccc(S(=O)(=O)NC(=O)c3ccc(N4CCN(CC5=C(c6ccc(Cl)cc6)CC(C)(C)CC5)CC4)cc3Oc3cnc4[nH]ccc4c3)cc2[N+](=O)[O-])CC1 has an inhibition of 1.2%.
For CNC(=O)Nc1ccc2c(c1)CC[C@]21OC(=O)N(CC(=O)N(Cc2ccc(F)cc2)[C@@H](C)C(F)(F)F)C1=O, the inhibition was 1.93%.
